Results of several laboratories.
Protocols differ between the studies behind these lines. Several values in a cell are separate wells, animals, samples, runs or records. ± gives the spread as reported. Converted amounts (≈) assume the structure as drawn.

| Structure (SMILES) | organism | assay | system | setting | scale | measurement | value |
| --- | --- | --- | --- | --- | --- | --- | --- |
| CC(C)n1ncc2c(C(=O)NCC3(C)CNC3)cc(C3CC3)nc21 | Enterovirus D68 | cytopathic effect | RD, US/IL/14-18956 | 500 nM | – | cell protection | 90.4% and 91.3% and 95.2% |
| Clc1ccc(N/N=C/c2ccc(-c3ccc(/C=N/Nc4ccc(Cl)cc4)cc3)cc2)cc1 | Candida and Aspergillus | – | – | concentration not given, strain panel | – | antifungal activity | inactive |
| COc1ccc(S(=O)(=O)Nc2c(C(=O)Nc3c(C(=O)O)cc(OC)c(OC)c3OC)cc(OC)c(OC)c2OC)cc1 | Leishmania infantum | intracellular amastigote growth | U-937 macrophages and HeLa | – | relative to: IC50 HeLa over IC50 amastigotes | selectivity index | 3.5 |
| COC[C@H]1O[C@@H]2O[C@H]3[C@H](OC)[C@@H](OC)[C@@H](O[C@H]4[C@H](OC)[C@@H](OC)[C@@H](O[C@H]5[C@H](OC)[C@@H](OC)[C@@H](O[C@H]6[C@H](OC)[C@@H](OC)[C@@H](O[C@H]7[C@H](OC)[C@@H](OC)[C@@H](O[C@H]8[C@H](OC)[C@@H](OC)[C@@H](O[C@H]1[C@H](OC)[C@H]2OC)O[C@@H]8COC)O[C@@H]7COC)O[C@@H]6COC)O[C@@H]5COC)O[C@@H]4COC)O[C@@H]3COC | Escherichia coli | LuxR reporter, antagonist | DH5α sensor strain | 40 µM, with: OHHL 200 nM | – | inhibition | 1 ± 3% |
| N#Cc1ccc(-c2c(-c3ccccn3)nc3n2CCC3)cc1 | Leishmania infantum | – | macrophages, MHOM/MA(BE)/67/ITMAP263, amastigote | – | – | IC50 | 43.1 µM and 23.9 µM |
| N#Cc1ccc(N2CCN(S(=O)(=O)c3ccc(F)cc3)CC2)cc1NCc1ccncc1 | Aedes aegypti | – | – | 100 µM, 48 h, 1 instar larvae | – | larval mortality | > 80% |
| O=C1C(Cl)=C(n2ccnc2)C(=O)c2ccccc21 | Alternaria alternata | – | ITCC 4522 | 10 µg/mL | – | zone of inhibition | 12 mm |
| CCCCCCCCCC(=O)N[C@@H](Cc1c[nH]c2ccccc12)C(=O)N[C@H](CC(N)=O)C(=O)N[C@@H](CC(=O)O)C(=O)N[C@@H]1C(=O)NCC(=O)N[C@@H](CCCN)C(=O)N[C@@H](CC(=O)O)C(=O)N[C@H](C)C(=O)N[C@@H](CC(=O)O)C(=O)NCC(=O)N[C@H](CO)C(=O)N[C@@H]([C@H](C)CC(=O)O)C(=O)N[C@@H](CC(=O)c2ccccc2N)C(=O)O[C@@H]1C | Enterococcus | broth microdilution | VRE 155, Mueller-Hinton broth, Mg2+ 10 mg/L | 16 h, with: Ca2+ 1.0 mM | – | MIC | 0.5 µg/mL (≈ 0.309 µM) |
| CCOC(=O)c1cccc(Cn2ccc3ccc(-c4ccc5ccn(Cc6cccc(C(=O)O)c6)c5c4)cc32)c1 | human immunodeficiency virus 1 | viral attachment, MAGI cell | MAGI cells, Ba-L | 3 h postinfection washout, CCR5-tropic | – | IC50 | 9.71 µM |
| Cc1cc(Nc2ccc(S(F)(F)(F)(F)F)cc2)n2nc(C(C)(F)F)nc2n1 | Plasmodium falciparum | – | infected patients | dose not given | – | time to clear 99% of initial parasitaemia | 2 days |
| CCCCCCCCCCCCCCCCOP(=O)([O-])OCC[N+](C)(C)C | Leishmania infantum | – | axenic amastigotes | – | relative to: IC50 HeLa over IC50 amastigotes | selectivity index | 1.5 |
| Nc1nc(-c2ccccc2)nc2[nH]nc(Nc3ccc(C(F)(F)F)cc3)c12 | coxsackievirus B3 | – | 31-1-93, NMRI mice, CVB3 chronic myocarditis | oral, 100 mg/kg twice daily, day 17, dosed days 3 to 10, score scale 0 to 7 | direction not given | clinical score | 0.4 |
| CCCCCCCNC1=C(n2cncn2)C(=O)c2ccccc2C1=O | Bacillus cereus | – | MTCC 430 | 10 µg/mL | – | zone of inhibition | 6 mm |
| COc1ccnc(-c2nc3ccccn3c2N(C)c2ccc(F)cc2)c1 | Leishmania infantum | – | macrophages, MHOM/MA(BE)/67/ITMAP263, amastigote | – | – | IC50 | 0.63 µM and 0.45 µM |
| CC(=Nc1ccc(N=Cc2cnccn2)cc1)N(C)C | Necator americanus | – | infected hamster | oral, 50 mg/kg, single dose | – | time to worm clearance | ≤ 24 h |
| CC1(C)S[C@@H]2[C@H](NC(=O)[C@H](N)c3ccc(O)cc3)C(=O)N2[C@H]1C(=O)O | Bacillus cereus | – | MTCC 430 | 10 µg/mL | – | zone of inhibition | 29 mm |
| O=C1OC[C@H]2OC(O)[C@H](O)[C@@H](O)[C@@H]2OC(=O)c2cc(O)c(O)c(O)c2-c2c(O)c(O)c3oc(=O)c4c(c(O)c(O)c5oc(=O)c2c3c54)-c2c1cc(O)c(O)c2O (mixture of isomers) | Streptococcus gordonii | broth microdilution | – | – | – | MBC/MIC ratio | 2 |
| N=C(N)c1ccc(OCCCCCOc2ccc(C(=N)N)cc2)cc1 | Escherichia coli | checkerboard | mcr-1 polymyxin-resistant | concentration not given, 20 h, with: rifampicin | – | MIC of compound in combination | 50 µg/mL |
| O=c1oc2c(O)c(O)cc3c(=O)oc4c(O)c(O)cc1c4c23 | Streptococcus gordonii | broth microdilution | – | – | – | MBC/MIC ratio | 4 |
| C#CCOC(=O)ON=C1C=CC(=C(C#N)c2ccccc2)C=C1 | Candida parapsilosis | broth dilution | ATCC 22099 | 48 h, 37 °C | – | MFC | 16 µg/mL (≈ 52.6 µM) |
| NC[C@H]1O[C@H](O[C@H]2[C@H](O)[C@@H](O[C@H]3O[C@H](CO)[C@@H](O)[C@H](N)[C@H]3O)[C@H](N)C[C@@H]2N)[C@H](O)[C@@H](O)[C@@H]1O | Salmonella typhimurium | bacterial growth | – | concentration not given | – | inhibition | 82% |
| O=[N+]([O-])c1ccc(N2CCN(S(=O)(=O)c3ccc(F)cc3)CC2)cc1NCc1cccnc1 | Aedes aegypti | – | adult females | topical, 12.5 nmol/mosquito, 24 h | – | flightless or dead mosquitoes | 49% |

| Structure (SMILES) | organism | assay | system | setting | scale | measurement | value |
| --- | --- | --- | --- | --- | --- | --- | --- |
| CN[C@H](CC(C)C)C(=O)N[C@H]1C(=O)N[C@@H](CC(N)=O)C(=O)N[C@H]2C(=O)N[C@H]3C(=O)N[C@H](C(=O)N[C@H](C(=O)O)c4cc(O)cc(O)c4-c4cc3ccc4O)[C@H](O)c3ccc(c(Cl)c3)Oc3cc2cc(c3O[C@@H]2O[C@H](CO)[C@@H](O)[C@H](O)[C@H]2O[C@H]2C[C@](C)(N)[C@H](O)[C@H](C)O2)Oc2ccc(cc2Cl)[C@H]1O | Streptococcus pyogenes | – | ATCC 13813 | 1 strain | – | MBC | > 32 µg/mL |
| FC(F)(F)c1cccc(Nc2c(-c3ccccn3)nc3ccccn23)c1 | Leishmania infantum | – | macrophages, MHOM/MA(BE)/67/ITMAP263, amastigote | – | – | IC50 | 8.06 µM and 5.08 µM |
| CC(=O)NC[C@H]1CN(c2ccc(N3CCOCC3)c(F)c2)C(=O)O1 | Staphylococcus epidermidis | – | MRSE | 10 isolates | – | MIC50 | 1 µg/mL (≈ 2.96 µM) |
| O=c1c(O[C@@H]2O[C@H](CO)[C@H](O)[C@H](O)[C@H]2O)c(-c2ccc(O)c(O)c2)oc2cc(O)cc(O)c12 | human immunodeficiency virus 1 | viral replication | TZM-bl cells, NL4-3 (CXCR4-tropic) | 48 h | – | IC50 | > 100 µM |
| N#Cc1cccc(-c2c(-c3ccccn3)nc3n2CCC3)c1 | Leishmania infantum | – | macrophages, MHOM/MA(BE)/67/ITMAP263, amastigote | – | – | IC50 | 9.51 µM and 12.7 µM |
| CCc1nn(C)c2nc(-c3ccc(C(=O)O)cc3)nc(NCc3ccc(F)cc3)c12 | Cryptosporidium parvum | – | HCT-8 | 3 x EC90, 6 h | relative to: DMSO control | parasite number | 100% and 77.7% and 62.4% and 81.3% |
| Cc1cc(OC(C)C)ccc1C(=O)C(C)(C)NC(=O)c1sccc1C | Botrytis cinerea | germ tube elongation | B05.10 | 0.001 µg/mL | – | inhibition | 8 ± 13.9% |
| COC(=O)[C@@H](NCc1cc2ccccc2nc1OCc1ccccc1)C(C)C | Pseudomonas aeruginosa | – | – | 4 µg/mL, without pentamidine | relative to: control | growth | 97.2% |
| COc1cc(N)c(NS(=O)(=O)c2ccc(N(C)C)cc2)cc1OC | Leishmania infantum | intracellular amastigote growth | U-937 macrophages and HeLa | – | relative to: IC50 HeLa over IC50 amastigotes | selectivity index | > 1.2 |
| O=C1/C(=C/c2ccc(O)cc2O)NC(=S)N1c1ccccc1 | Bacillus cereus | – | ATCC 14579 | concentration not given | – | inhibition zone diameter | 15 ± 0.83 mm |
| Brc1ccc(N/N=C/c2ccc(-c3ccc(/C=N/Nc4ccc(Br)cc4)cc3)cc2)cc1 | Candida and Aspergillus | – | – | concentration not given, strain panel | – | antifungal activity | inactive |
| O=C(/C=C/c1ccc(O)c(O)c1)O[C@@H]1C[C@](O)(C(=O)O)C[C@@H](O)[C@H]1O | human immunodeficiency virus 1 | viral replication | TZM-bl cells, NL4-3 (CXCR4-tropic) | 48 h | – | IC50 | > 100 µM |
| Cc1ccn2c(CNc3ccc(F)cc3)c(-c3ccccn3)nc2c1 | Leishmania infantum | – | macrophages, MHOM/MA(BE)/67/ITMAP263, amastigote | – | – | IC50 | 11.6 µM and 12.7 µM |
| [H]/N=C(/N)N[C@H]1[C@H](O)[C@@H](O)[C@H](O[C@@H]2O[C@@H](C)[C@](O)(C=O)[C@H]2O[C@@H]2O[C@@H](CO)[C@H](O)[C@@H](O)[C@@H]2NC)[C@@H](N/C(N)=N\[H])[C@@H]1O | Bacillus cereus | – | ATCC 14579 | concentration not given | – | inhibition zone diameter | 15 ± 0.1 mm |
| CN[C@H](CC(C)C)C(=O)N[C@H]1C(=O)N[C@@H](CC(N)=O)C(=O)N[C@H]2C(=O)N[C@H]3C(=O)N[C@H](C(=O)N[C@H](C(=O)O)c4cc(O)cc(O)c4-c4cc3ccc4O)[C@H](O)c3ccc(c(Cl)c3)Oc3cc2cc(c3O[C@@H]2O[C@H](CO)[C@@H](O)[C@H](O)[C@H]2O[C@H]2C[C@](C)(N)[C@H](O)[C@H](C)O2)Oc2ccc(cc2Cl)[C@H]1O | Staphylococcus aureus | broth microdilution | methicillin-susceptible isolates | – | – | MIC90 | 1 µg/mL (≈ 0.69 µM) |
| O=C1C(Cl)=C(n2cncn2)C(=O)c2ccccc21 | Alternaria alternata | – | ITCC 4522 | 10 µg/mL | – | zone of inhibition | 14 mm |
| N#Cc1ccc(-c2c(-c3ccccn3)nc3n2CCC3)cc1C(F)(F)F | Leishmania infantum | – | macrophages, MHOM/MA(BE)/67/ITMAP263, amastigote | – | – | IC50 | 25.4 µM and 27.9 µM |
| O=C(O)c1ccc(O)c(O)c1 | human immunodeficiency virus 1 | viral replication | TZM-bl cells, BaL (CCR5-tropic) | 48 h | – | IC50 | > 100 µM |
| COc1cccnc1-c1nc2ccccn2c1N(C)c1ccc(F)cc1 | Leishmania infantum | – | macrophages, MHOM/MA(BE)/67/ITMAP263, amastigote | – | – | IC50 | 1.6 µM and 1.26 µM |
| CC(C)c1ccc(/C=C2\NC(=S)N(c3ccccc3)C2=O)cc1 | Bacillus cereus | – | ATCC 14579 | concentration not given | – | inhibition zone diameter | 12 ± 0.39 mm |
| CCCCCCC(=O)ON=C(/C=C/c1ccccc1F)/C=C/c1ccccc1F | Aedes aegypti | larval mortality | fourth instar larvae | 72 h | – | LC50 | 27.9 µM |

For quick reference, copied from above:
| Structure (SMILES) | organism | assay | system | setting | scale | measurement | value |
| --- | --- | --- | --- | --- | --- | --- | --- |
| CCCCCCCCCC(=O)N[C@@H](Cc1c[nH]c2ccccc12)C(=O)N[C@H](CC(N)=O)C(=O)N[C@@H](CC(=O)O)C(=O)N[C@@H]1C(=O)NCC(=O)N[C@@H](CCCN)C(=O)N[C@@H](CC(=O)O)C(=O)N[C@H](C)C(=O)N[C@@H](CC(=O)O)C(=O)NCC(=O)N[C@H](CO)C(=O)N[C@@H]([C@H](C)CC(=O)O)C(=O)N[C@@H](CC(=O)c2ccccc2N)C(=O)O[C@@H]1C | Enterococcus | broth microdilution | VRE 155, Mueller-Hinton broth, Mg2+ 10 mg/L | 16 h, with: Ca2+ 1.0 mM | – | MIC | 0.5 µg/mL (≈ 0.309 µM) |
| CCOC(=O)c1cccc(Cn2ccc3ccc(-c4ccc5ccn(Cc6cccc(C(=O)O)c6)c5c4)cc32)c1 | human immunodeficiency virus 1 | viral attachment, MAGI cell | MAGI cells, Ba-L | 3 h postinfection washout, CCR5-tropic | – | IC50 | 9.71 µM |
| Cc1cc(Nc2ccc(S(F)(F)(F)(F)F)cc2)n2nc(C(C)(F)F)nc2n1 | Plasmodium falciparum | – | infected patients | dose not given | – | time to clear 99% of initial parasitaemia | 2 days |
| CCCCCCCCCCCCCCCCOP(=O)([O-])OCC[N+](C)(C)C | Leishmania infantum | – | axenic amastigotes | – | relative to: IC50 HeLa over IC50 amastigotes | selectivity index | 1.5 |
| Nc1nc(-c2ccccc2)nc2[nH]nc(Nc3ccc(C(F)(F)F)cc3)c12 | coxsackievirus B3 | – | 31-1-93, NMRI mice, CVB3 chronic myocarditis | oral, 100 mg/kg twice daily, day 17, dosed days 3 to 10, score scale 0 to 7 | direction not given | clinical score | 0.4 |
